Measured values pooled from the literature.
Lines come from different studies, so protocols differ. Numbers after ± are the reported error.
CNR2 I110L: Cannabinoid receptor 2 (CNR2, Homo sapiens, UniProt P34972, I110L)
HSP90AA1: Heat shock protein HSP 90-alpha (HSP90AA1, Homo sapiens, UniProt P07900)
CNR1: Cannabinoid receptor 1 (CNR1, Homo sapiens, UniProt P21554)
OPRD1 with Gi1: Delta-type opioid receptor, with Gi1 (OPRD1, Homo sapiens, UniProt P41143)
dncV: dncV (Vibrio cholerae, UniProt Q9KVG7)
Nucleoprotein monomeric: Nucleoprotein, monomeric (Influenza A virus, UniProt P15682)
Slc6a3: Sodium-dependent dopamine transporter (Slc6a3, Rattus norvegicus, UniProt P23977)
VHL with elongin B/C: von Hippel-Lindau disease tumor suppressor, with elongin B/C (VHL, Homo sapiens, UniProt P40337)

CCCCCc1cc(O)c2c(c1)OC(C)(C)C1=C2[C@@H](O)[C@@](C)(O)CC1
Ki' (Si (Rattus norvegicus, UniProt P23739); inhibitor): 305 µM

CCCCCn1cc(C(=O)c2cccc3ccccc23)c2ccccc21
Emax (CNR2 I110L; Gαi1 engagement, agonist, BRET; baseline: reference agonist at wild-type CB2): 58.3 ± 5.9%

CCC(C)n1c(C(=O)Nc2cnc(C(=O)NC)n(CC(C)C)c2=O)ncc(NC(=O)c2ncc(NC(=O)c3ccccc3)c(=O)n2CCc2ccc(O)cc2)c1=O (centres unmarked)
inhibition (HSP90AA1; 50 µM): 31.3%

CCCCCn1cc(C(=O)c2cccc3c2CC(C)(C)C3)c2ccccc21
Emax difference (CNR1; β-arrestin 2 recruitment, agonist, BRET; baseline: CB1 minus CB2): ~70%

CCC(C)n1c(C(=O)Nc2cnc(C(=O)NC)n(CC(C)C)c2=O)ncc(NC(=O)c2ncc(NC(=O)c3ccccc3)c(=O)n2Cc2ccc(OC)cc2)c1=O (centres unmarked)
inhibition (HSP90AA1; 50 µM): 39.9%

CC(=O)N[C@@H](CCC(=O)O)C(=O)N[C@@H](CCC(N)=O)C(=O)N[C@H](C(=O)N[C@@H](CCC(=O)O)C(=O)N[C@@H](CC(C)C)C(=O)N[C@@H](CCC(=O)O)C(=O)N[C@@H](Cc1ccccc1)C(=O)N[C@@H](CC(=O)O)C(=O)O)C(C)C
fraction of target bound (Beta sliding clamp (Escherichia coli, UniProt P0A988); 50 µM, target 5 µM): ~93%

N=C(N)NCCCCN1CC[C@]23c4c5ccc(O)c4O[C@H]2c2[nH]c4ccccc4c2C[C@@]3(O)[C@H]1C5
Emax (OPRD1 with Gi1; human cells): 80 ± 5%

Nc1nc2c([C@@H]3O[C@@H]4COP(=O)(O)O[C@H]5[C@@H](O)[C@H](c6scc7c(=O)[nH]c(N)nc67)O[C@@H]5COP(=O)(O)O[C@H]4[C@H]3O)scc2c(=O)[nH]1
rate constant k1 (dncV; substrate, HPLC): 0.308 ± 0.03 M⁻¹ s⁻¹

COc1ccc2cc(C(CC(=O)O)CC(=O)O)ccc2c1
Tm shift (Nucleoprotein monomeric; baseline: free NP): 5 °C

N=C(N)NCCCN1CC[C@]23c4c5ccc(O)c4O[C@H]2c2[nH]c4ccccc4c2C[C@@]3(O)[C@H]1C5
Emax (OPRD1 with Gi1; human cells): 84 ± 2%

CCCCCn1cc(C(=O)c2ccc3c(c2)CC(C)(C)C3)c2ccccc21
Emax (CNR2 I110L; Gαi1 engagement, agonist, BRET; baseline: reference agonist at wild-type CB2): 74.2 ± 7%

C[N+](C)(C)CCOC(N)=O
Hill coefficient (CHRNA7/glc-2 (Homo sapiens, UniProt P36544+Q17328); binding; 24 or 48 h, 37 °C): 1.09 ± 0.08

NC1=NN=Cc2ccccc2[O][V](=[O])[O]1.c1cnc2c(c1)ccc1cccnc12
selectivity ratio (PTPN22 (Homo sapiens, UniProt Q9Y2R2); baseline: IC50 LYP over IC50 YopH): 68.2

CCCCCn1c2ccccc2c2cc(C(=O)c3cccc4ccccc34)ccc21
Emax (CNR1; GTPγS binding, agonist; cell membranes): 107%

CNC(C)C(=O)c1ccc(F)c(F)c1 (centres unmarked)
potency ratio (Slc6a3; dopamine release, releaser; rat brain synaptosomes; added: [3H]dopamine; baseline: compound over methamphetamine): 4.5 fold

CCC(C)n1c(C(=O)Nc2cnc(C(=O)NC)n(CC(C)C)c2=O)ncc(NC(=O)c2ncc(NC(=O)c3ccccc3)c(=O)n2Cc2ccc(OCc3ccccc3)cc2)c1=O (centres unmarked)
inhibition (HSP90AA1; 50 µM): 41.8%

COc1ccc2cc(-c3c(C(=O)O)cccc3C(=O)O)ccc2c1
Tm (Nucleoprotein monomeric; binder, thermal shift): 46 ± 1 °C

CCC(=O)N1CCc2cc(-c3ccc(C(=O)NCc4ccco4)cc3)ccc21
inhibition (VHL with elongin B/C; binding, TR-FRET; 10 µM, 90 min, added: BODIPY FL VH032): 45.7%

Cc1ccccc1N1C(=O)/C(=C/c2ccc(OCc3cccc(C(=O)O)c3)cc2)C(=O)NC1=S
selectivity ratio (PTPN2 (Homo sapiens, UniProt P17706); phosphatase activity, inhibitor; baseline: LYP IC50 over PTPN2 IC50 inverse): 3 fold

CCCCCCCCN1CCC23c4c5ccc(O)c4OC2c2nc4ccccc4cc2CC3(O)C1C5 (centres unmarked)
Emax (OPRD1 with Gi1; human cells): 55 ± 2%

Nc1nc2c([C@@H]3O[C@@H]4COP(=O)(O)O[C@H]5[C@@H](O)[C@H](c6snc7c(=O)[nH]c(N)nc67)O[C@@H]5COP(=O)(O)O[C@H]4[C@H]3O)snc2c(=O)[nH]1
intermediate degradation rate k3 (dncV; substrate, HPLC; 500 µM, 37 °C): 0.00013 ± 1e-05 s⁻¹

OP(O)(=S)O[C@H]1[C@H](OP(O)(O)=S)[C@@H](OP(O)(O)=S)[C@H](OP(O)(O)=S)[C@@H](OP(O)(O)=S)[C@H]1OP(O)(O)=S
koff (Toxin B (tcdB, Clostridioides difficile, UniProt P18177); binding, ITC): 0.00691 s⁻¹

CNC(C)C(=O)c1cccc(OC(F)(F)F)c1 (centres unmarked)
potency ratio (Slc6a3; dopamine release, releaser; rat brain synaptosomes; added: [3H]dopamine; baseline: compound over methamphetamine): 15 fold

CCOC(=O)C1C(OC(c2ccc(Cl)cc2)c2ccc(Cl)cc2)CC2CCC1N2C (single isomer, unassigned)
Ki (Adra1b (Rattus norvegicus, UniProt P15823); binding, radioligand displacement; rat liver; inactive if below 75% at 10000 nM, added: [3H]prazosin): inactive

O=C1CC(=O)N(c2ccccc2)c2cc(Cl)ccc2N1
Emax (Gabrg2/Gabra1, with β2 subunit (Rattus norvegicus, UniProt P18508+P62813); positive allosteric modulator, whole-cell patch clamp; HEK293; α1β2γ2 subunits, added: GABA at EC10): 143 ± 13%

CC1=C[C@H]2c3c(O)cc(CCc4ccccc4)cc3OC(C)(C)[C@@H]2CC1
Emax (CNR1; GTPγS binding, agonist, radiometric; cell membranes): 142%

CCCCCn1cc(C(=O)Cc2ccccc2OC)c2ccccc21
association constant (CNR1; binding, surface plasmon resonance; 50 µM): 1.53e+11 M⁻¹

CCOCC1CC(F)(F)CN1C1CCN(C(=O)c2ccc3cc[nH]c3c2)CC1 (centres unmarked)
inhibition (VHL with elongin B/C; binding, TR-FRET; 10 µM, 90 min, added: BODIPY FL VH032): 36.4%

COc1ccccc1N1C(=O)/C(=C/c2cccn2-c2ccc(O)cc2)C(=O)NC1=S
activity class (RORC (Homo sapiens, UniProt P51449); cell-based; concentration not given): active

NCCCCCCCCN1CCC23c4c5ccc(O)c4OC2c2nc4ccccc4cc2CC3(O)C1C5 (centres unmarked)
Emax (Delta-type opioid receptor, with β-arrestin2 (OPRD1, Homo sapiens, UniProt P41143); human cells): 46 ± 2%

Nc1nc2c([C@@H]3O[C@H](COP(=O)(O)OP(=O)(O)OP(=O)(O)O)[C@@H](O)[C@H]3O)snc2c(=O)[nH]1
rate constant k1 (dncV; first phosphodiester formation, substrate, HPLC; 500 µM, 37 °C): 1.26 ± 0.07 M⁻¹ s⁻¹

CN[C@](C)(C[18F])C(=O)O
tracer uptake (A549 tumour model; host not given, muscle; 15 min, tumour-bearing): 2.1 %ID/g
